Measured values collected from several papers.
Each numbered part is a random draw from the data of one study; scales do not carry over between parts. Substitutions count along the parent as printed.

Set 1 — technique: DHFR PCA, deep sequencing; matrix: yeast; added: (+)-ABA 710 µM; reference: wild-type fitted maximum; direction: higher = stronger binding
Target: ABI1, truncated, D143A, DHFR fusion (Arabidopsis thaliana)
Setting: methotrexate growth selection, single substitutions
Starting sequence: PYL1, truncated, DHFR fusion (Arabidopsis thaliana); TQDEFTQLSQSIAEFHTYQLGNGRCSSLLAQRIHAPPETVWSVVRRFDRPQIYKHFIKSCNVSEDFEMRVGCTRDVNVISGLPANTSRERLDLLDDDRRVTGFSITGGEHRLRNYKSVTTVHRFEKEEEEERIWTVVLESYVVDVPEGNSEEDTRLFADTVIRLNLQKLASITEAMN; partner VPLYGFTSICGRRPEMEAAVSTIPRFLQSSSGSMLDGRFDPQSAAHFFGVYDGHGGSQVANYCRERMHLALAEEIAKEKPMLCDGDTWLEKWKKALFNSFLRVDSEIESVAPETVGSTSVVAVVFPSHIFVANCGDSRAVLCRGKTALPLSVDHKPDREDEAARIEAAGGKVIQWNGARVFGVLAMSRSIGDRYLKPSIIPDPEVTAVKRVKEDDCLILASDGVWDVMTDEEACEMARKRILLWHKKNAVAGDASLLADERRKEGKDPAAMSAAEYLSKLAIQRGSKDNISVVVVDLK
Change | relative binding score [%]
A170Q | 96.6
E4I | 102
S9N | 93.9
D65M | 98.3
L156V | 102
R24K | 99.3
Y141R | -3.81
F103N | -26.7
E125R | 104
K126G | 111

Set 2 — technique: RNA Bind-n-Seq; form: RNA; matrix: in vitro; tested at: 365 nM; reference: no-protein control; direction: higher = stronger binding
Target: RNA binding protein fox-1 homolog 2, RRM domain, GST-SBP tag (RBFOX2, Homo sapiens, UniProt O43251-10, residues 100-194)
Setting: natural RNA segment, single round, ends assumed
All sequences stand within: GGGAGUUCUACAGUCCGACGAUC … UGGAAUUCUCGGGUGCCAA
Target sequence (chain): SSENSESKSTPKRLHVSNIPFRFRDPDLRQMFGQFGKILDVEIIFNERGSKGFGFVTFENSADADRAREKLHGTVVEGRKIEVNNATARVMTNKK
Strand | RBNS enrichment (R)
UACAAUUGGCUCUGAGAAAAAGGGAGACAUUUUAAAUUCUUUAACUUCUUAUUUCUCGUCCUGUCUCUUUGCAAAGUAUGGGCUUUUUUGUUUUUGUUUUUUAAGGGAAA | 0.588
GAGACUGGCUGAAAUGAGGAGACUUUGACCAUGUGACGUGUCAACAGACUCAAGGAGACAACCACCUCAACUGGGUCAUGUGGCAUGCCUGUGUAUGUGUGUAACAGAAU | 0.858
UAAGGAAUUCUUGGGUAGGGCACAGGGAUGGGGUUGCCAGCUUCUUCUUUCUUGUGGUGGGGCUCAGACACCAGCAACAGCCUCUUGGGAUGCCCCAAGUUGUUUCCGGU | 0.361
GAGCUGCUGCUGGUCCCCCCUUCUGACGUGCAAUGCAAAAGGGACAUCAUGUAUACGCAGCAUUUAUUUGGAGUUUUUCCUUUGGCUUUUUUUCCUCUCUUUUUCAGUUA | 0.524
UCUUUUUUCAAGGCUUAAAUUUUUUUUUUUCAUGACCUUCUGGAAGAAGCAAUAGUAGCAAUCUUAAAUUUGACUCAUAGGGGAGAUAAGCGUGUGUCUUUUUAACUUAG | 0.788
AGCAAAACUGCUGUCGCUGCAGUAUCUGAUACCAGACAUCCACAUAUCCACAAGAAGUGCCUCUUAGGUCUGUGACAGAGAGUGUGUCUCCAUUCCUCAGUUCCCAGAAA | 0.259

Set 3 — technique: RNA Bind-n-Seq; form: RNA; matrix: in vitro; tested at: not given; setting: RNA with constant flanks, ends assumed; reference: input RNA pool; direction: higher = stronger binding
Target: RING finger protein unkempt homolog, zinc fingers 1-6, GST-SBP tag (UNK, Homo sapiens, UniProt Q9C0B0, residues 30-357)
Sequence of UniProt Q9C0B0 (30-357, looked up): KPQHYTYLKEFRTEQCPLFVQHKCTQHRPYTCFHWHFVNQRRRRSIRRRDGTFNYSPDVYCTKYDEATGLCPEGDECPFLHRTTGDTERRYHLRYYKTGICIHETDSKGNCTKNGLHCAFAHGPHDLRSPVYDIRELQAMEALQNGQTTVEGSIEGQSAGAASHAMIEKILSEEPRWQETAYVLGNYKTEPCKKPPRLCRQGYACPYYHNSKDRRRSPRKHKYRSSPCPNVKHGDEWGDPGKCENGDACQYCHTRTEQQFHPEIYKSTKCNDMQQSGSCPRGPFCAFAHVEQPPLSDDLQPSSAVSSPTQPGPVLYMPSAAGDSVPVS
All sequences stand within: GGGAGUUCUACAGUCCGACGAUC … CAACAGAGGAUUGAGCAUCA
Strand | bound/input enrichment [ratio]
CGCAAUACUAUUGCUUCCAUUGCUGCUGGUGUACUAUUUUUUACAGGCUGGUGGAUUAUCACCGAUGCAGCUGUUAUUUAUCCCACCAUGAAAGAUUUCAACCACUCAUACCAUGCCUGU | 0.245
UUCGAUGUGAGAAUUGAACGAGAUGCACAAGAAAUGGCUGAUAGUUUAGGAGUUAGAAUUUUCCGUGCAGAAAUUAUUUAUCAUUUAUUUGAUGCCUUUACAAAAUAUAGACAAGACUAC | 12.3
ACUCUGUGGGCCACAUCCCCCAGGGUUCUGACACUUCUGCAGUGUGACCAGUGGUGAUGCCCGGUUAUAAUUUCAAACUGUGAAAAAUAAUGGUCUCGUCCUUUACUCAGUGUGGGGUUA | 0.122
CCAGAGCUCAAAUACCCAAAAGGAGCUGGAAGAGUCGCGUUUUCUAAUCAACAGAGUUACACCGCUGCUAUCAGUGCCCGCUUUGUUCAGCUGCAGCAUGGAGAGAUAGAUAAACGGGUG | 0.181
GACCGUGCCCUAGAAUUUGCCCCUGCCUGCCAUCGAUUCAAAAUUCUCAAAGCAGAAUGUUCCGCAAUGCUUGGUCGAUACCCAGAAGCACAGUUUGUGGCCAGUGACAUUUUACGAAUG | 0.34

Set 4 — target: CREB3L1, bZIP domain (human); technique: DHFR protein complementation; matrix: yeast; reference: wild-type JUN-FOS pair; direction: higher = stronger binding
Setting: single substitutions, most at no-binding floor
Starting sequence: JUN, bZIP domain (human); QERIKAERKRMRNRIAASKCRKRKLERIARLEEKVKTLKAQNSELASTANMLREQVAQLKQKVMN; partner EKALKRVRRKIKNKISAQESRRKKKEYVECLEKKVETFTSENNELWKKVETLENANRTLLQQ
Change | binding fitness [natural log]
T48V | -1.35
A49N | -1.54
S43K | -1.43
L45N | -1.46
T48P | -1.52
L31W | -1.47
S43F | -1.33
A57W | -1.44

Set 5 — target: CCND1, cyclin fold, Cln2 fusion (human); technique: yeast growth competition, sequencing; matrix: yeast; setting: weak parent motif; reference: not given; direction: higher = stronger binding
Starting sequence: WEE1 docking peptide (human); HKTFRKLRLFDTP; partner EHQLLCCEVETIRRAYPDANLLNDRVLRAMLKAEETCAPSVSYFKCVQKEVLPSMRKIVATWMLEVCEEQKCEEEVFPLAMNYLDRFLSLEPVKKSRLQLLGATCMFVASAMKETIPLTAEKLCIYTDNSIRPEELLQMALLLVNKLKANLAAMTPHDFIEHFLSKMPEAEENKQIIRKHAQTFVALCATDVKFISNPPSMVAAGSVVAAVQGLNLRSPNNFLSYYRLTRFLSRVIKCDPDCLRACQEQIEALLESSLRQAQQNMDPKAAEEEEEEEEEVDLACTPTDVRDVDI
Change | normalised enrichment score
R8K | 0.403
L9N | -0.244
T3R | -0.553
T12G | 0.407
L9T | -0.585
T12I | 0.549
F4C | 0.101
L9S | 0.234
F10Q | -1.12
T3S | -1.5
L7I | 0.4

Set 6 — technique: universal PBM; form: double-stranded DNA, one strand shown; matrix: in vitro; tested at: not given; direction: higher = stronger binding
Target: Sal-like protein 4, full length isoform B (SALL4, Homo sapiens, UniProt Q9UJQ4-2, residues 1-616)
Setting: 8-mer, flanks averaged, mean of replicates
Construct (chain): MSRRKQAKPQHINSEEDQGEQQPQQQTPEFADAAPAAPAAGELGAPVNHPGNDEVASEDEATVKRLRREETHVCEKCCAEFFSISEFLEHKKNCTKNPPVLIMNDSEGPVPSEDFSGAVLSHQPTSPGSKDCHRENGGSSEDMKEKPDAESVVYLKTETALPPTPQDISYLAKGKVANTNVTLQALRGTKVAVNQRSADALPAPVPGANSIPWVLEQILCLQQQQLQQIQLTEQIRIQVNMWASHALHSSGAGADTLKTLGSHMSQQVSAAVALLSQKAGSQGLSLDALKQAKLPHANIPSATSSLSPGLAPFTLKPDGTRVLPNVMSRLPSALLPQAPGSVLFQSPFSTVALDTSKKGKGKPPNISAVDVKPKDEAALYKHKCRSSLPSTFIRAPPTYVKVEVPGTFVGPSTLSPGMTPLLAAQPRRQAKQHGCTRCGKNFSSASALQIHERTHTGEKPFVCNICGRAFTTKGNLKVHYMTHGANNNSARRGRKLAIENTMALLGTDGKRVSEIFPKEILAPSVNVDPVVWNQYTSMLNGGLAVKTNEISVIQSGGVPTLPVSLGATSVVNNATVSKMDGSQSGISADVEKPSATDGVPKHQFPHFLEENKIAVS
Strand | E-score
GTGTGTTA | 0.226
ACCCGGTA | -0.136
AAAGGCTT | -0.0644
TCCTATAA | 0.278
AGGGCTAT | -0.109
CATGGCAA | -0.0166
CCTGTATA | 0.145
CTTGTACC | -0.00354
ACTACTCC | -0.029
ACATGTTG | 0.205
AATTAGCA | 0.17
GGGGTGAC | -0.0919
AAGACCGG | -0.294
AAAGCGTA | 0.054
AGCCGCAC | -0.27
CACATCCG | -0.028
ACAAGGTC | -0.0634
ACACAAAA | 0.232
GAGGAGTA | -0.0329
CGTCCAGA | -0.151
TAGGAACA | 0.101
ACCCTCCA | -0.174
GTCTTTTA | 0.02
CAACGGTC | -0.0891
CACTGATC | -0.119

Set 7 — technique: protein-binding microarray; form: double-stranded DNA, one strand shown; matrix: in vitro; tested at: not given; direction: higher = stronger binding
Target: Transcriptional repressor CTCF (CTCF, Homo sapiens, UniProt P49711, residues 1-727, full length assumed)
Sequence of UniProt P49711 (whole entry, looked up): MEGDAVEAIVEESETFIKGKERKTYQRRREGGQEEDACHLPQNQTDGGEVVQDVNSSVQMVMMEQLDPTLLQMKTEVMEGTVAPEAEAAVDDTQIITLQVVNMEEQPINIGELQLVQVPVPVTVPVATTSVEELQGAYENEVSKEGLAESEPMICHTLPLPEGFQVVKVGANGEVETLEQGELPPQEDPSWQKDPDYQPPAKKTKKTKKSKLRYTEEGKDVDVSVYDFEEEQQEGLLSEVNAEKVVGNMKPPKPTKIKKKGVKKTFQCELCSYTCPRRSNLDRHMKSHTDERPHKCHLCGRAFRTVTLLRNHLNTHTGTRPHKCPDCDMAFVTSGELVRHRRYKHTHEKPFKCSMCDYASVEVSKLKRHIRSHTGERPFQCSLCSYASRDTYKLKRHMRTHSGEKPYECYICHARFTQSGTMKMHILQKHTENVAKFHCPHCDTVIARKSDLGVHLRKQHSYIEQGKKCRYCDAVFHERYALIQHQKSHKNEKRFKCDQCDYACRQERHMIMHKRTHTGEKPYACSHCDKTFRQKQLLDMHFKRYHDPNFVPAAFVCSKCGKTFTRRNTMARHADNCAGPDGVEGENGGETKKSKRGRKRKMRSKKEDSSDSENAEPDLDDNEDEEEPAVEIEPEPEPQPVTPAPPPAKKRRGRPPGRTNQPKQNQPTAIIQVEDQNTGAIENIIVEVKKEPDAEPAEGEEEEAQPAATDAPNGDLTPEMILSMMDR
Setting: k-mer, scored over probes, only values ≥0.25
Strand | E-score
ACATATTC | 0.251
CATGTGTA | 0.268
AAATAAAC | 0.305
ATGGTGAA | 0.277
ATTTAATG | 0.313
ATAATACC | 0.251
CATGATTA | 0.3
ATAGATAC | 0.309
CAAAAATA | 0.316
ATGTATCA | 0.273
AGTGTTAT | 0.287
CGAATTTC | 0.281
ATTGGCGC | 0.314
ATGCAATA | 0.324
CCGCAATA | 0.251
ACGTACTC | 0.281
GAAATAAA | 0.271

Set 8 — technique: protein-binding microarray; form: hairpin DNA; matrix: in vitro; tested at: not given; reference: not given; direction: higher = stronger binding; all sequences stand within: GAGGCCA … TGGCCTCACACTC
Target: Hepatocyte nuclear factor 3-beta, forkhead domain (FOXA2, Homo sapiens, UniProt Q9Y261, residues 142-269)
Setting: whole hairpin DNA, median over replicate spots
Target sequence (chain): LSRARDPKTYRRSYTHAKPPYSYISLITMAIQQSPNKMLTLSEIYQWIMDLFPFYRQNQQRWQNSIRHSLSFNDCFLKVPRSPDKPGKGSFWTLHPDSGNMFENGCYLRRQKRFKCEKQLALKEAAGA
Strand | median fluorescence [a.u.]
TGCACACAACGCCTCCTGGCGTTGTGTGCA (5mC at 12) | 3290
TGCACGCAACGCCTCCTGGCGTTGCGTGCA (5mC at 12 32) | 3450
TGTAAACGACGCCTCCTGGCGTCGTTTACA (5mC at 14 30) | 3760
TGTAAACAGCGCCTCCTGGCGCTGTTTACA (5mC at 29) | 4310
TGCACACAACGCCTCCTGGCGTTGTGTGCA | 3360
TGCAAACTACGCCTCCTGGCGTAGTTTGCA | 3180
GGCAAACAACGCCTCCTGGCGTTGTTTGCC (5mC at 37) | 3550
TGTAAAGAACGCCTCCTGGCGTTCTTTACA (5mC at 31) | 3000
TATAACCAACGCCTCCTGGCGTTGGTTATA | 2910
TGCAACCAACGCCTCCTGGCGTTGGTTGCA (5mC at 10) | 3350

Set 9 — technique: RNA Bind-n-Seq; form: RNA; matrix: in vitro; tested at: 20 nM; setting: 6-mer, flanks averaged, single round; added: 150 mM KCl; reference: input library; direction: higher = stronger binding
Target: TAR DNA-binding protein 43, full length, His tag (TARDBP, Homo sapiens, UniProt Q13148, residues 1-414)
Strand | 6-mer enrichment (R)
CGGAUU | 0.715
UACAAC | 0.618
GGAAGU | 1.56
UGGAAG | 1.59
UAUUAA | 0.618
CUCUAU | 0.56
CCUGUC | 0.605
GUCCAC | 0.69
GGUUCA | 0.854
UAAGCU | 0.599
UCUACG | 0.626
GGGGAC | 4.12
GGGCAU | 2.08

Other studies, line by line
Substance | partner | technique | matrix | added | quantity | result
UQCRQ (Homo sapiens, UniProt O14949) | CYC1 (Homo sapiens, UniProt P08574) | cross-linking MS | cells | BSPNO | cross-linked residues | K33 to K318

Excerpt of the above (set 6):
Strand | E-score
CTTGTACC | -0.00354
ACTACTCC | -0.029
ACATGTTG | 0.205
AATTAGCA | 0.17
GGGGTGAC | -0.0919
AAGACCGG | -0.294
AAAGCGTA | 0.054
AGCCGCAC | -0.27
